Measurements of several laboratories.
Numbered parts are unrelated; each lists some results of a single study.

Sample 1
Target: Sal-like protein 4, full length isoform A (SALL4, Homo sapiens, UniProt Q9UJQ4, residues 1-1053)
UniProt Q9UJQ4, sequence (whole entry, looked up): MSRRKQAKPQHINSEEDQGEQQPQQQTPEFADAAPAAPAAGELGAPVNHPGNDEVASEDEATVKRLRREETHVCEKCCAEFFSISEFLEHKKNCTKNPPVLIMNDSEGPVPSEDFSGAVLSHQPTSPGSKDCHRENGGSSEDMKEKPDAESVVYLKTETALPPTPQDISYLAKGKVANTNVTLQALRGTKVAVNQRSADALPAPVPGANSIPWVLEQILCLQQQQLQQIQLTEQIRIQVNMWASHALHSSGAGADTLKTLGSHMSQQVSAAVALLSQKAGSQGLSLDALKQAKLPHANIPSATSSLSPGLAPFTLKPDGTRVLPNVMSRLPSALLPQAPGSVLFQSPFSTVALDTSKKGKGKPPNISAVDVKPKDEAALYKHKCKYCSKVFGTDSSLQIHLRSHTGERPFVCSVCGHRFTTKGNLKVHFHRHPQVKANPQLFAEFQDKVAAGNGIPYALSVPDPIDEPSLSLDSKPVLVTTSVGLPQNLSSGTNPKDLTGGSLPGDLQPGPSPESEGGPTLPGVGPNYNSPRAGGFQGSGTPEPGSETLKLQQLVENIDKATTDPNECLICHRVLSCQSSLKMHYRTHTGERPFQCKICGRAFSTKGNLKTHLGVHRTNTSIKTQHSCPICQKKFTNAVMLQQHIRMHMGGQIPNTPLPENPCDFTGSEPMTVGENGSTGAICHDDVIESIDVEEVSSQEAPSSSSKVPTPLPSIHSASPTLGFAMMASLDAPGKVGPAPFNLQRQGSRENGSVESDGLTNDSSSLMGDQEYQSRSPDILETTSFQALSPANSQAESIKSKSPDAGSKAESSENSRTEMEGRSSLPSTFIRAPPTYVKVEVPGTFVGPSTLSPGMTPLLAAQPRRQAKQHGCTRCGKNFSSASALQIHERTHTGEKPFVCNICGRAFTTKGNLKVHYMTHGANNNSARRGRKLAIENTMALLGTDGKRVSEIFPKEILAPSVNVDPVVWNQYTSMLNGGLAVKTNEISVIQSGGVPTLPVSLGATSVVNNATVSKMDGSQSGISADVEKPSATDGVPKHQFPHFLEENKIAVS
Method: universal PBM
Molecule type: double-stranded DNA, one strand shown
Sample: in vitro
Concentration: 600 nM
Notes: 8-mer, flanks averaged, mean of replicates
Direction: higher = stronger binding
| Oligonucleotide | E-score |
| --- | --- |
| AAACTCCC | -0.0631 |
| CAATGACG | -0.00739 |
| AACGTAAC | 0.0502 |
| CCATTTTA | 0.237 |
| CACGCGGC | -0.306 |
| ATAGGCTC | 0.0342 |
| GATTTAGC | -0.00856 |
| ACTGGTCG | -0.257 |
| TGATGGAA | 0.197 |
| ACAAGTAA | 0.235 |
| GCACCAGA | -0.154 |
| CCCCCTTC | -0.376 |
| AACCGAAT | 0.122 |
| GAGGAAAA | 0.165 |
| AGTTTAGG | -0.0473 |
| GCGTTATA | 0.126 |
| TCGCGACA | -0.0432 |
| ACTCGACT | -0.0259 |
| ATTTCAGA | 0.213 |
| CTAGGAAA | 0.0762 |
| CTGCAGGA | -0.0038 |
| AGGGGAAT | 0.017 |
| CATTTAGG | -0.0361 |
| GCTGCGGA | -0.198 |
| TATCGTCA | 0.134 |

Sample 2
Target: RNA binding protein fox-1 homolog 2, RRM domain, GST-SBP tag (RBFOX2, Homo sapiens, UniProt O43251-10, residues 100-194)
Method: RNA Bind-n-Seq
Molecule type: RNA
Sample: in vitro
Concentration: 365 nM
Notes: natural RNA segment, single round, ends assumed
Reference: no-protein control
Direction: higher = stronger binding
All sequences stand within: GGGAGUUCUACAGUCCGACGAUC … UGGAAUUCUCGGGUGCCAA
Construct (chain): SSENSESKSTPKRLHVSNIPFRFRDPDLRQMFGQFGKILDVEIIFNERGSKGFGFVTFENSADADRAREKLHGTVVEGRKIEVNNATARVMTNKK
| Oligonucleotide | RBNS enrichment (R) |
| --- | --- |
| UCCACUCCCCCUGCCGCCCACACUGCAGCAGCCACAUCCAUACACACACGCUCGCACAGUGUUCUGAGGAAGGAACCUUCGCCACAGACUCCUGUACUAUUAACAAUCUG | 0.663 |
| GACAUUUAUUUUUCAUUUAGUUUGAUUAUUCAGUGUCACUGGCGACACGUAGCAGCUUAGACUAAGGCCAUUAUUGUACUUGCCUUAUUAGAGUGUCUUUCCACGGAGCC | 0.338 |
| CAUUUUUUUUUAAAAUUGAAGGUCAGCCAUGCUUUCUGUAUUAUAUUGCAUAUGAAAUUGUUUACAAAAGAAACACUAACUCAUCCUUCUCUUUAUCAGUUGAAAGUGAC | 0.54 |
| UUAAAGAUCAAAUUAUUUGACUAUUGCUAGACAUUUCUAUACUCUGUUGUAACACUGAGGUAUCUCAUUUGCCCAUGUUAAUUUUUUUCUAAAUAAAUUGACAAAAACAA | 0.341 |
| AAACCCAGCCCUGGCGCUGAGCCUCUCUACCCCAGGUCAGACGGACAGAAAGACAGAUCACAGGUACAGGGAUGAGGACACCGGCUCUGACCAGGAGUUUGGGGAGCUUC | 0.565 |
| AGUUCUCUUUGGAAAAAAACUACCACUGUGGUCUUAAAAGGGAACAAAAUAUACCAUAGGCUAAAACUAAGGCUUUCACUCUAGAAUGCAAAGCUGUUUUGCAGCUGUUU | 0.29 |
| GGCAGAGAAGAAAAAGUCCAGCAGACUCAGGACUCCUGGGCUGCAGGCCCCCCUCUGCCCUGAUCCCAUGAAGUGACCUUGGGCACUCCCUUUCCCUCCCUGGGCCUCAG | 0.402 |
| GCUGUGCUGGGGAGGCAGUGUAGAGAGGAGCUGUGGGGCAGCCAGCCUUGGCAGGUGCAGUUUGCAGUUCACUGCAGCUCCCUCCCCCUUUUGUUUCCUCAAUUUAAGCA | 1.54 |
| GUAAUUCAGAUUUGUCAUUUGGAGGAAAAUCAACAUAAUCUGAAUAUAAAGCAGGCAGCAUUGAGAACUUCUACGUAUGUGAACAUCAUUGACUUCGUCGAGCAGUGAUU | 8.58 |
| AUGGUCAGUUAGGAUGACAAUAGUAAGUUCAUCUACAGCAUAAAAUGUGAAAUGCUUUCAUCCUCAUUGCCCAUUUCCAACUACCAUUCUGUUUCUCCUCUAUUGUUCAU | 1.35 |
| GCUCUAGACAUGUCUCUUGGUGUGUGUUUUAUCUACUGGUGUUAUUCUAUAUGGUAGAAUUACCAAAAGCUAUUCAGAUUUCUUAAUAAAGGGCAAAUCAACCAAGCCUG | 0.369 |
| UCUCUUCUCUUCUUUGAGACAGGGUUUCACUCACUUUGUAACCCUAGCUGGCCUGGAAUUCACUAUGUAGAGCAGACUGGUCUUGAACUCACAGUCACAGAGAUCACCUG | 0.314 |

Sample 3
Target: Histone acetyltransferase KAT6A, winged helix 2, GST fusion (KAT6A, Homo sapiens, UniProt Q92794, residues 85-181)
Method: protein binding microarray
Molecule type: double-stranded DNA, one strand shown
Sample: in vitro
Concentration: not given
Notes: 8-mer, flanks averaged, mean of 2 arrays, mostly near background
Reference: not given
Direction: higher = stronger binding
Residues (chain): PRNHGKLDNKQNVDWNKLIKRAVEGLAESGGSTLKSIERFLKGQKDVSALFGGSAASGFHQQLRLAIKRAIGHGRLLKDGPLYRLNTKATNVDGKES
| Oligonucleotide | E-score |
| --- | --- |
| CTATTCGC | 0.0784 |
| GTGAGCAC | 0.0721 |
| ATCACGAC | -0.0582 |
| AAGGGCAG | -0.0416 |
| ATCCACAT | -0.0678 |
| ATTCCAAG | 0.152 |
| AAAAGTCC | -0.0516 |
| ACTGTACA | -0.214 |
| AAGGAGCC | 0.0357 |
| TGACTGCA | -0.196 |
| AGACCCTC | -0.0391 |
| GATGTACA | -0.0833 |
| TAAATATA | 0.139 |
| ACTTGTAA | -0.214 |
| GGCACCAC | 0.0608 |
| AGTCCCTA | -0.224 |
| ACATCCGC | 0.0743 |
| AAAAAACA | 0.0973 |
| AGCGGCTC | 0.107 |
| AGCCCCCT | 0.014 |
| CTGCGCGA | 0.0956 |
| GCTGCACA | -0.0296 |

Sample 4
Target: RING finger protein unkempt homolog, zinc fingers 1-6, GST-SBP tag (UNK, Homo sapiens, UniProt Q9C0B0, residues 30-357)
Method: RNA Bind-n-Seq
Molecule type: RNA
Sample: in vitro
Concentration: not given
Notes: RNA with constant flanks, ends assumed
Reference: input RNA pool
Direction: higher = stronger binding
All sequences stand within: GGGAGUUCUACAGUCCGACGAUC … CAACAGAGGAUUGAGCAUCA
Construct (chain): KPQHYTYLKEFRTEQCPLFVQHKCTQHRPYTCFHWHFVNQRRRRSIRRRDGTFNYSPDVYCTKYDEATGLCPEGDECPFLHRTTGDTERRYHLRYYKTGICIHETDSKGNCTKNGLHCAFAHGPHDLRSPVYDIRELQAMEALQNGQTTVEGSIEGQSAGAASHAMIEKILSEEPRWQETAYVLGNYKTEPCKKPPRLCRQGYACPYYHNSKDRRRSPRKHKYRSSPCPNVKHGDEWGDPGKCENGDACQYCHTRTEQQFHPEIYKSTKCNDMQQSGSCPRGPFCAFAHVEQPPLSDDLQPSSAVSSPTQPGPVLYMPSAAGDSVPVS
| Oligonucleotide | bound/input enrichment [ratio] |
| --- | --- |
| GACUAGACGUUUUGGAUUUACGAUUCUAUUUUGUCGUUCGGUUGGUGGAAGAUGUGCUCGCCGCUCUAUUUUCCAUGACAGAUAGUGACGACACUACGUGCAAAAGGUAUAUAAAGAUGA | 0.269 |
| UUAGCUAGUGGAGCCACUUUCUGUAUUGUUACAUGGACAUAUGUAGCAACACAAGUCGGAACCGAAUGGAACCUGUCCCCUGUUGGCAGAGUUACCCCAAAGGAAUGGAGGAAUCAGUAA | 0.194 |
| ACUUCAGUGGCUGGAACAGUGAGAAAAUGCUGGCCUAAUAGAGUGGCAAAGGAGCAGAUCCGCCGGCGGCUUGAUGGUAAUCAGUAUCUGUUUUUGCCACCAAAUCGUUACAUUUUCCAU | 0.126 |
| UCCUCACUUACUGGAAGUGGGAAGAGAAAUAGGAUAAGAAGUUCUCUGCCAUGGAGGCAAAACCGUUGGAAAGGGUACAGUGAAAACAUGAGGAAGCUCAGAAAGACUCAUGAUAUUCCA | 0.208 |
| AUGUCUUUAGUUUCAGAAUAACAGUGCCAUUACCAUAUGUUUGUAUGUUGCAGUUGGAUACCGCUGAGACUCCUCCAUCUUGGUUUUCUCUUCACUCAUCCAUUUCUUCAGCUGCAUGAU | 1.2 |
| UUUGGGCAAUGCUAUGAGUUUCUCACUCUUCAUACAGUGAAAAAGUACUUUCUUCCAAUAACCGAAAUGGUUCCACAGUUUUUAGAAAACUUAACUGAUGAAGAACUGAAAAAAGAAGCA | 0.319 |
| AGCAAUCCAGAUCUCUAUGGCCCCUUUUGGAUAUGUGCCACGUUGGUCUUUGCCACCGCAAUCCGUGGGAAUCUUUCCAACUUCUUGAUCCAUCUGGGAGAGAAGACGUACCAUUAUGUG | 0.0943 |
| AAUAAGCUACAUAAUUCCGAAGUUAUAUUUCCUCUACCAUUUCCGUAAUUCUUACUCCAUUUCCGAAAACUUUGUUAGGCCAAAGACAAAUAGUAGGCAAGAUGGCACAGGGCAUGAAGU | 0.459 |
| AUGUGCCUGUACUUAAAAAAAAAAAAAUGGUACACCAGAAAAGGACUGGCAGUCUACUACCACCGUCAAACUUCACCUUAAUUUCGACAUGACUUUUGGAAGCAGGAAGAAAGCUACAAA | 0.147 |
| AGUAGGAAAAUCACCGUUCUGCAAGUGAACGAGAAGUCCCUCAUCCGGCAGUACACCACCUCCGUGGAGAUGGAGCGGCACCUGAGAAAGGAAAACGGGAAACACAGGAAUGACGUCAUA | 0.134 |
| UCUUUCAAGAAUACAUAUCCUAAAGAUGAAGCACAUGUCUCAGAUGAAUUCUCCAAAAGCCGGUCCAGUGUAUCUAAGGUGCCCUUAUUGCUUCCAAAUGUUUCUGCUUUGGAAUCUCAA | 0.132 |

Sample 5
Target: Interferon regulatory factor 5, full length, phosphomimetic (IRF5, Homo sapiens, UniProt Q13568-2, residues 1-514, K96S/S451D/S453D/S456D/S462D)
Method: protein-binding microarray
Molecule type: double-stranded DNA, one strand shown
Sample: in vitro
Concentration: 250 nM
Notes: 60-bp whole probe
With: salmon DNA 0.4 mg/ml
Reference: random background probes
Direction: higher = stronger binding
All sequences stand within: GCCTAGCAC … GTCTTGATTCGCTTGACGCTGCTG
| Oligonucleotide | log fluorescence [z-score] |
| --- | --- |
| TTATATTTTAATCACATATAGTGCTAG | 0.967 |
| TTAGGCATCCTTCTCCTTTAGTGCTAG | -0.371 |
| GACGGTATCAGTATCGGGACGTGCTAG | 3.14 |
| GACGGTTCCAGTTTCGAGACGTGCTAG | 5.2 |
| TTAGGTATCGGGACTGGCTTAGTGCTA | 1.83 |
| TTTTTTTTGTATTTTTGATAGTGCTAG | 1.79 |
| TCAGTTTTCTAAACCATACTGTGCTAG | 0.947 |
| CTGGACCCACTTCCAAATGGGTGCTAG | -0.517 |
| TTATGACTGGGGTTTCGGTTAGTGCTA | 6.79 |
| GACGGTCTCCTTTACCTGACGTGCTAG | -0.0443 |
| TTAGAACTGAATATCGATTAGTGCTAG | 4.27 |
| GACGGACTGAACACTGGGGACGTGCTA | -0.535 |
| GACGATACCAGTATCGAGACGTGCTAG | 2.62 |
| TTAGCTTTCCTACTGCTTTAGTGCTAG | 0.612 |
| TTAGGTATCGGTCTCGGTAAGTGCTAG | 7.5 |
| TTAGGACTGCTACTGCTTTGGTGCTAG | -0.46 |
| TTAGGTCTCCTACTGCGTTAGTGCTAG | -0.293 |
| CTGTTTTTGCTTTCCTTCTTGTGCTAG | 2.43 |
| TTAGATTCCAGTGTCGATTAGTGCTAG | 0.678 |
| TACGATTTCAGACTGGAGACGTGCTAG | 0.26 |
| CACTTTCTTTAACTCATTCTGTGCTAG | 3.21 |
| GACGGTTTCGGGTATCGGGATGTGCTA | 8.43 |
| TTAGATATCAGTCTCGTTTAGTGCTAG | 1.58 |
| GACGGTCTCATTATCCTGACGTGCTAG | 0.00195 |
| TGAGAACTGGGGACTGGATTAGTGCTA | -0.552 |

Some of these lines once more (sample 3):
| Oligonucleotide | E-score |
| --- | --- |
| ATTCCAAG | 0.152 |
| AAAAGTCC | -0.0516 |
| ACTGTACA | -0.214 |
| AAGGAGCC | 0.0357 |
| TGACTGCA | -0.196 |
| AGACCCTC | -0.0391 |
| GATGTACA | -0.0833 |
| TAAATATA | 0.139 |
| ACTTGTAA | -0.214 |
| GGCACCAC | 0.0608 |
| AGTCCCTA | -0.224 |
| ACATCCGC | 0.0743 |
| AAAAAACA | 0.0973 |
| AGCGGCTC | 0.107 |
| AGCCCCCT | 0.014 |
